Results pooled from the literature.
Protocols differ between the studies behind these lines. Several values in a cell are separate wells, animals, samples, runs or records. Numbers after ± are the reported error.
SLC47A2: Multidrug and toxin extrusion protein 2 (SLC47A2, Homo sapiens, UniProt Q86VL8)
UniProt Q86VL8, sequence (whole entry, looked up): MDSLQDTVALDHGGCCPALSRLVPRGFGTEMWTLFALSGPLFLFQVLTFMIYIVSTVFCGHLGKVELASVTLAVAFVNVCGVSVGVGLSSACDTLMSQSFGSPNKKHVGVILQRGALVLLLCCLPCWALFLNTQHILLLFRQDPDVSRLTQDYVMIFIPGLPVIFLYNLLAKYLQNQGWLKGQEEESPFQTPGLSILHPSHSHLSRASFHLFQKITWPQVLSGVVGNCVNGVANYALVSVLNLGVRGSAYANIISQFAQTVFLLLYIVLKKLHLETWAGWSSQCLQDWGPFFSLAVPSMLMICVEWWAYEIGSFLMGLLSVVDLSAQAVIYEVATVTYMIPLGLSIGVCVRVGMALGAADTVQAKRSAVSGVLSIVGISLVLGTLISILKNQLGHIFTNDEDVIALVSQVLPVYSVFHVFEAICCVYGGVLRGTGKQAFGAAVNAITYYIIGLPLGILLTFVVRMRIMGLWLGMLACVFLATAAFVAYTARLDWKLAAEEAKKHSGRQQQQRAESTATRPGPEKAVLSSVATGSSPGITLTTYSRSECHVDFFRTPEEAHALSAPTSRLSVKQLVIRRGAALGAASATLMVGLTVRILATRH
UniProt Q9UNQ0, sequence (whole entry, looked up): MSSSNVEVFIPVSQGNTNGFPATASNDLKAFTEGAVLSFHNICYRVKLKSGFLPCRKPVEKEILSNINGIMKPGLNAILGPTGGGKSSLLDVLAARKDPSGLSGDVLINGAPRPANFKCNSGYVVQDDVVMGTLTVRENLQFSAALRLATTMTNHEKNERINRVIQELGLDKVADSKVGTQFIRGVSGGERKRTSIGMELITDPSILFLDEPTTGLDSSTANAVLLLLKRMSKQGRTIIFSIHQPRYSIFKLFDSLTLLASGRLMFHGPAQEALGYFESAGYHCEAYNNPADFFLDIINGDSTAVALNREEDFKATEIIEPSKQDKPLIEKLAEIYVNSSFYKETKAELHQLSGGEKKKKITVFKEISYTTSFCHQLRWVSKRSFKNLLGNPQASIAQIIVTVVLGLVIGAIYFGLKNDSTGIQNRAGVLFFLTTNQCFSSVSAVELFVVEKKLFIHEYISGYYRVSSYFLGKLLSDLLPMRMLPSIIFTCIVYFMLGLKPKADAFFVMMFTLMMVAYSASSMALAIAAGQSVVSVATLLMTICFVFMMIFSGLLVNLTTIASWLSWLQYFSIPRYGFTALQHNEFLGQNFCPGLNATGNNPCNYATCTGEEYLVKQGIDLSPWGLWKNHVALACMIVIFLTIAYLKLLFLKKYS
UniProt Q9Y5L0, sequence (whole entry, looked up): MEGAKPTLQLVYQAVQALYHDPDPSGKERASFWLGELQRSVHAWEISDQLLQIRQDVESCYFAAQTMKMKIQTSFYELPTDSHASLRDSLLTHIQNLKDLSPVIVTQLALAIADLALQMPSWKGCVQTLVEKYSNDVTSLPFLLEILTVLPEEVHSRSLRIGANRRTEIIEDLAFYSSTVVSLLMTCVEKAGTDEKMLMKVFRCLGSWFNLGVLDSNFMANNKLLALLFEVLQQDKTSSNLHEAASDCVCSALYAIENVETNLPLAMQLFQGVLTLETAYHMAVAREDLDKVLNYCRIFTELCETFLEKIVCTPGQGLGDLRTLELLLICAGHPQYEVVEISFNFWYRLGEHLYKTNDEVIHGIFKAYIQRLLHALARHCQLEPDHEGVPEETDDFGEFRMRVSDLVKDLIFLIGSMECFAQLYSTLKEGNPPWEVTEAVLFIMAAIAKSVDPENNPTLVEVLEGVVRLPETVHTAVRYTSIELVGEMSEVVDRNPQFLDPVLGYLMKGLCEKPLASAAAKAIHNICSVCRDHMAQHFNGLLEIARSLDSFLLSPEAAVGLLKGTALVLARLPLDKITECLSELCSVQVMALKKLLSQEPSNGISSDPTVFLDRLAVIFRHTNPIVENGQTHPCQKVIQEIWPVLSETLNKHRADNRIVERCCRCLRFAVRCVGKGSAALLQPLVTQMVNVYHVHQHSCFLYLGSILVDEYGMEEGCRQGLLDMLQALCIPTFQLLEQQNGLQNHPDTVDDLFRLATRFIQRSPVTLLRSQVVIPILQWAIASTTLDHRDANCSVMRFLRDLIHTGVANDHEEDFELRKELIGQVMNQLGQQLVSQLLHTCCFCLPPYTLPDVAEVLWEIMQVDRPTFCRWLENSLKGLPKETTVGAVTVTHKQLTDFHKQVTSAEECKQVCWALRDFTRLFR

| SMILES | tested on | test | system | setting | how to read | endpoint | result |
| --- | --- | --- | --- | --- | --- | --- | --- |
| CCCC(C(=O)c1ccc(O)c(OC)c1)N1CCCC1 (centres unmarked) |  |  | rat | subcutaneous, 1 mg/kg MDPV, 40 min |  | brain-to-plasma ratio | 0.7 ± 0.3 |
| CC(=O)c1c(C)c2cnc(Nc3ccc(C4CCN(CCS(C)(=O)=O)CC4)cn3)nc2n(C2CCCC2)c1=O |  |  | human, plasma | oral, dose not given, steady state, continuous dosing, range over doses |  | t1/2 | 4.04 to 13.3 h |
| CN(C)C(=O)COC(=O)Cc1ccc(OC(=O)c2ccc(NC(=N)N)cc2)cc1 | SLC47A2 | transport, inhibitor | transiently transfected cells | 100 µM, 10 (unit not given), together with: thiamine |  | inhibition | 93.4% |
| C[C@]1(CO)Cc2ncn(-c3ccc(C#N)c(Cl)c3)c2C(=O)O1 |  |  | human | 40 mg multiple doses, fasted |  | subjects with drug-related headache | 11.1% |
| CC(=O)N1CCC(C(=O)N2CCN3C(=O)c4cc(-c5ccccc5)ccc4NC(=O)C3C2)CC1 (centres unmarked) | Salmonella typhimurium |  | TA1535 | 158 µg/plate |  | revertants per plate | 25 |
| COc1cccc(-c2n[nH]c(SCc3ccccn3)n2)c1OC | Salmonella typhimurium | Ames test, plate incorporation | TA1537 | 1.0 mg/plate, without S9 |  | revertant colonies per plate | 5 |
| Cc1c(Cl)cccc1-c1ccc(CNCCSc2nnnn2-c2ccccc2)o1 | Vero-E6 | CellTiter-Glo ATP |  | 72 h, first round 5-point | relative to: DMSO 0%, hyamine -100%, more negative, more toxic | maximum response | -1.63% |
| NC(=O)c1nc(F)c[nH]c1=O | Broad substrate specificity ATP-binding cassette transporter ABCG2 (ABCG2, Homo sapiens, UniProt Q9UNQ0) | transport, inhibitor |  | 100 µM, 5 (unit not given), pH 7, together with: CCK-8 |  | inhibition | 10.1% |
| O=C1c2c(O)c(=O)ccn2N([C@@H]2c3ccccc3SCc3c2ccc(F)c3F)[C@@H]2COCCN12 |  |  | BALB/c mouse | subcutaneous, 2 mg/kg q12h |  | trough concentration | 14.5 ng/mL |
| COc1cc2c(Oc3ccc4[nH]c(C)cc4c3F)ccnc2cc1OCC1(N)CC1 |  |  | paediatric recurrent refractory sarcoma | 8 mg/kg |  | grade 1 or 2 Proteinuria | 20% |
| CN(C)c1cccc(C(=O)NCC2CCN(c3cc(-c4ccc(Cl)cc4)n[nH]3)CC2)c1 | Vero-E6 | CellTiter-Glo ATP |  | concentration not given, 72 h, retest 8-point duplicates | relative to: DMSO 0%, hyamine -100%, more negative, more toxic | cytotoxicity efficacy | -22.3% |
| C[C@H]1CN(N=O)CCc2ccc(Cl)cc21 | TK6 |  |  | 2.5 µM, 4 h, together with: hamster liver S9 | relative to: vehicle | relative survival | 87.6% |
| CCN(CC)CCCNC(=O)c1ccc(-c2nc(CN3CCc4ccccc43)c(C)o2)cc1 | Vero-E6 | CellTiter-Glo ATP |  | concentration not given, 72 h, second round 5-point | relative to: DMSO 0%, hyamine -100%, more negative, more toxic | cytotoxicity efficacy | 0% |
| CCC(CC)COC(=O)[C@H](C)N[P@](=O)(OC[C@H]1O[C@@](C#N)(c2ccc3c(N)ncnn23)[C@H](O)[C@@H]1O)Oc1ccccc1 |  |  | healthy human | intravenous, 100 mg |  | participants with adverse events | 22% |
| COc1ccc(Nc2cc(C(=O)NCCCN3CCN(c4ccc(OC)cc4)CC3)c3ccccc3n2)cc1 | Vero-E6 | CellTiter-Glo ATP |  | concentration not given, 72 h, second round 5-point | relative to: DMSO 0%, hyamine -100%, more negative, more toxic | cytotoxicity efficacy | -20.6% |
| CN1CC[C@@H](c2c(O)cc(O)c3c(=O)cc(-c4ccc(C(F)(F)F)cc4Cl)oc23)[C@@H]1CO |  | refers to: Hyperglycemia | relapsed AML | oral, 150 mg, grade 3-4, intermittent dosing |  | patients with adverse event | 25% |
| C[C@H]1CN(c2n[nH]c3nc(N[C@H]4CC[C@H](NS(=O)(=O)CCC(F)(F)F)CC4)ncc23)CCO1 | Transportin-3 (Homo sapiens, UniProt Q9Y5L0) | Kinobeads competition, refers to: TNPO3 |  | 20 µM, unit not given | relative to: vehicle | remaining binding | 1.15 |
| O=C(Nc1cccc(Cl)c1)C1CCCN(Cc2cccc(-c3ccc(F)cc3F)c2)C1 (centres unmarked) | Vero-E6 | CellTiter-Glo ATP |  | 72 h, retest 8-point duplicates | relative to: DMSO 0%, hyamine -100%, more negative, more toxic | maximum response | 2.17% |

| SMILES | tested on | test | system | setting | how to read | endpoint | result |
| --- | --- | --- | --- | --- | --- | --- | --- |
| CCCC(C(=O)c1ccc2c(c1)OCO2)N1CCCC1.Cl (racemic) |  | LC-MS/MS | rat, trunk blood plasma | subcutaneous, 4 mg/kg, 240 min |  | plasma concentration | 36.4 ± 5.4 ng/mL |
| O=c1ccc2ccccc2o1 | NHEK | caspase-3/7 activity |  | concentration not given, 1 h |  | chance response | 3.4% |
| CN/C(=N\[N+](=O)[O-])NCc1cnc(Cl)s1 |  |  | soil | 0.12 nominal, 28 days, Folsomia candida soil test |  | recovery | 42% |
| CO[C@H]1C[C@@H]2CC[C@@H](C)[C@@](O)(O2)C(=O)C(=O)N2CCCC[C@H]2C(=O)O[C@H]([C@H](C)C[C@@H]2CC[C@@H](OC(=O)NCCOCCOCCOCCOCCOCCOCCOCCOCCC(=O)N3CCc4cc(Cn5nc(-c6ccc7oc(N)nc7c6)c6c(N)ncnc65)ccc4C3)[C@H](OC)C2)C[C@@H](O)[C@H](C)/C=C(\C)[C@@H](O)[C@@H](OC)C(=O)[C@H](C)C[C@H](C)/C=C/C=C/C=C/1C |  | phase 1 dose escalation, refers to: neutropenia | advanced solid tumour patients | intravenous, 16 mg weekly, grade ≥3 |  | dose-reducing adverse events | 25% |
| CC(C)C[C@H](NC(=O)[C@H](C)NC(=O)[C@@H](NC(=O)[C@H](CCCNC(=N)N)NC(=O)[C@H](CC(C)C)NC(=O)[C@H](Cc1c[nH]c2ccccc12)NC(=O)[C@@H]1CCCN1C(=O)[C@@H](N)CCCCN)C(C)C)C(=O)N[C@@H](CS)C(=O)N1CCC[C@H]1C(=O)NCC(=O)O | HEp-2 | WST-1 |  | 16 µM, 24 h |  | viability | 94.8% and 96.8% and 101% |
| CCS(=O)(=O)N1CC(CC#N)(n2cc(-c3ncnc4[nH]ccc34)cn2)C1 | SLC47A2 | transport, inhibitor |  | 50 µM, together with: thiamine |  | inhibition | 88% |
| CNC(=O)c1c(C)oc2cc(Oc3ccnc4cc(OCCN5CCOCC5)ccc34)ccc12 |  |  | patients | dose not given, dose cohorts | relative to: once daily versus twice daily | haemoglobin level | no effect |
| NC(=O)c1ncn([C@@H]2O[C@H](CO)[C@@H](O)[C@H]2O)n1 | SLC47A2 | transport, inhibitor | transiently transfected cells | 100 µM, 10 (unit not given), together with: thiamine |  | inhibition | -9.47e-15% |
| CCN(CC)C(=O)[C@@H]1C=C2c3cccc4[nH]cc(c34)C[C@H]2N(C)C1 |  | refers to: lack of energy | healthy volunteers | dose not given, 0 to 12 h | relative to: placebo, direction not given | List of Complaints score | 8 |
| CC1(C)[C@H](C(=O)OCc2cccc(Oc3ccccc3)c2)[C@@H]1C=C(Cl)Cl | human CYP2B6 | IVIVE from expressed enzymes | human, liver, in vivo scaled | 0.1 µM, age-specific |  | enzyme contribution to CLint | 2.99% |
| CC(C)C[C@@H](N)C(=O)N[C@H](CC(C)C)C(=O)N[C@H](Cc1ccccc1)C(=O)N[C@H](Cc1ccccc1)C(=O)N[C@H](C)C(N)=O | NGF-differentiated PC-12 neurons |  |  | 5 µM, 24 h | relative to: untreated | viability | 98.8% |
| COc1ccccc1-c1ccc(CN2CCCC(c3nc4ccc(C)cc4c(=O)[nH]3)C2)cc1 (centres unmarked) | Vero E6 cells | cytotoxicity, CellTiter-Glo |  | no virus |  | AC50 | 12.6 µM |
| [Cl-].[Cl-].[Pt+2].[Ru+2].c1ccc(-c2nc3ccccc3nc2-c2ccccn2)nc1.c1cnc2c(c1)ccc1cccnc12.c1cnc2c(c1)ccc1cccnc12 | Danio rerio |  | embryos | 60 µM, 48 h |  | survival rate | 70 ± 4.1% |
| CCN(CC)CCNC(=O)c1cc(-c2ccc(Br)s2)nc2ccccc12 | Vero-E6 | CellTiter-Glo ATP |  | concentration not given, 72 h, retest 8-point duplicates | relative to: DMSO 0%, hyamine -100%, more negative, more toxic | cytotoxicity efficacy | -86.5% |
| CC(C)C[C@@H](N)C(=O)N[C@H](CC(C)C)C(=O)N[C@H](Cc1ccccc1)C(=O)N[C@H](Cc1ccccc1)C(=O)N[C@H](C)C(=O)N[C@H](CCC(=O)O)C(N)=O | NGF-differentiated PC-12 neurons |  |  | 80 µM, 24 h | relative to: untreated | viability | 95.6% |
| CCCCSCCCNC(=O)C1CCN(Cc2nc(-c3ccc(CC)cc3)oc2C)CC1 | Vero-E6 | CellTiter-Glo ATP |  | concentration not given, 72 h, second round 5-point | relative to: DMSO 0%, hyamine -100%, more negative, more toxic | cytotoxicity efficacy | -8.26% |
| CC(C)C[C@@H](NC(=O)[C@H](N)CCCCN)C(=O)N1CCC[C@@H]1C(=O)N[C@H](Cc1ccccc1)C(=O)N[C@H](Cc1ccccc1)C(N)=O | NGF-differentiated PC-12 neurons |  |  | 20 µM, 24 h | relative to: untreated | viability | 100% |

Some of these lines once more:
| SMILES | tested on | test | system | setting | how to read | endpoint | result |
| --- | --- | --- | --- | --- | --- | --- | --- |
| O=C(Nc1cccc(Cl)c1)C1CCCN(Cc2cccc(-c3ccc(F)cc3F)c2)C1 (centres unmarked) | Vero-E6 | CellTiter-Glo ATP |  | 72 h, retest 8-point duplicates | relative to: DMSO 0%, hyamine -100%, more negative, more toxic | maximum response | 2.17% |
| CCCC(C(=O)c1ccc2c(c1)OCO2)N1CCCC1.Cl (racemic) |  | LC-MS/MS | rat, trunk blood plasma | subcutaneous, 4 mg/kg, 240 min |  | plasma concentration | 36.4 ± 5.4 ng/mL |
| O=c1ccc2ccccc2o1 | NHEK | caspase-3/7 activity |  | concentration not given, 1 h |  | chance response | 3.4% |
| CN/C(=N\[N+](=O)[O-])NCc1cnc(Cl)s1 |  |  | soil | 0.12 nominal, 28 days, Folsomia candida soil test |  | recovery | 42% |
| CO[C@H]1C[C@@H]2CC[C@@H](C)[C@@](O)(O2)C(=O)C(=O)N2CCCC[C@H]2C(=O)O[C@H]([C@H](C)C[C@@H]2CC[C@@H](OC(=O)NCCOCCOCCOCCOCCOCCOCCOCCOCCC(=O)N3CCc4cc(Cn5nc(-c6ccc7oc(N)nc7c6)c6c(N)ncnc65)ccc4C3)[C@H](OC)C2)C[C@@H](O)[C@H](C)/C=C(\C)[C@@H](O)[C@@H](OC)C(=O)[C@H](C)C[C@H](C)/C=C/C=C/C=C/1C |  | phase 1 dose escalation, refers to: neutropenia | advanced solid tumour patients | intravenous, 16 mg weekly, grade ≥3 |  | dose-reducing adverse events | 25% |
